Measurements pooled from the literature.
Parts stem from different laboratories: compare values within a part only.

Sample 1 — technique: protein-binding microarray; molecule type: double-stranded DNA, one strand shown; matrix: in vitro; concentration: 940 nM top; notes: 60-bp whole probe; together with: salmon DNA 0.4 mg/ml; reference: random background probes; direction: higher = stronger binding; shared flanks, not repeated: GCCTAGCAC … GTCTTGATTCGCTTGACGCTGCTG
Target: Interferon regulatory factor 5, full length, phosphomimetic (IRF5, Homo sapiens, UniProt Q13568-2, residues 1-514, S451D/S453D/S456D/S462D)
Strand	fitted relative affinity
TAGTCTCTTCTGCAGCCTTTGTGCTAG	0.948 z-score
CACTCCACCTCTGTGCTCTTGTGCTAG	0.21 z-score
TTAGACCTGAGTATCGATTAGTGCTAG	4.25 z-score
TTAGGTTTGGGGACTGGGTTAGTGCTA	-0.161 z-score
GACCAACTGGGGTATCGAGACGTGCTA	1.18 z-score
GATGAACTGGGGACTGGAGACGTGCTA	-0.0674 z-score
TTAGATATCAGATTGGATTAGTGCTAG	-0.243 z-score
TCAGATTTTTAGTTAGAACTGTGCTAG	0.29 z-score

Sample 2 — technique: EMSA with sequencing; molecule type: double-stranded DNA, one strand shown; matrix: in vitro; concentration: 10 and 20 nM; reference: negative control set to 0; direction: higher = stronger binding
Target: Hepatocyte nuclear factor 3-alpha (Foxa1, Mus musculus, UniProt P35582, residues 1-468, full length assumed)
Notes: whole designed probe, mean of two concentrations, ends assumed
Shared flanks, not repeated: GTGAGCGGTGCCCATTGATGGGGAAC … TTTCACTGGGATCGTGGGGAC
Residues (chain): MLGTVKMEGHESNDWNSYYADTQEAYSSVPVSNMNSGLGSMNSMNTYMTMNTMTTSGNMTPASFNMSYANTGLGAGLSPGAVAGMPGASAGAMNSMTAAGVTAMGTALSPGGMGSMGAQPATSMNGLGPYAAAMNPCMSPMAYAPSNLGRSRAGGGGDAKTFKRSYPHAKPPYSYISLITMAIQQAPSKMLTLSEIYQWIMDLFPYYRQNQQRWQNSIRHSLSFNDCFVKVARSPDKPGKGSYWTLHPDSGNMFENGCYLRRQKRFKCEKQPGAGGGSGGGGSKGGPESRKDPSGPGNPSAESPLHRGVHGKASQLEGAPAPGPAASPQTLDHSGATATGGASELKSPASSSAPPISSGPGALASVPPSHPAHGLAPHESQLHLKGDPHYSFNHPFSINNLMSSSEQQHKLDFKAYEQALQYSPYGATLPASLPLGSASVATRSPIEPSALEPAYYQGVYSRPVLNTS
Strand	normalised bound fraction
CTTCTTTCCTTCCTTCTTTCTTTCTCTTTCCTGTTTAAGTGAAGTGTGCAGAGGCAGATTGGGGTAGATGTTTACCTCTGTTGACATCAATGTGTCAACAGCTTCCCACTGCCTCACTGGGCCAGGTGGGGGCAGAAACCCAGCTCTCCAATGGGTGACATCCACACAGGAGGCAGGGGGGAAGTAACCTGTC	0.121 ratio
GTCCATCACCATTATTTATTTTTAAAGCTGCTGAAAAGTGTAAGCCACCGCTTGATTTTGCCTTTCAAAAAAGGGGAAAGAACCCAAATTCAATGTAATTTTGGAAAGACCAGCATTGTTTCCACTTGGGCGAAGGCAGACACCCCAATCTGGGCAAAATTGATTCGGGTGGTTGTTGGAAAAAGCAGCTTTC	0.14 ratio
GACAGTACATGTTTTAGGATTTTTGGACCACACAGTCTCTGTCACAATGACTCAGCTTTGCCATTGTAGCGTGCAAACAGCCACAAACCATATGCAATCTAAGAGGGTGTGGTTGTATGCCAATAAAACTTTATTTACAAAAGCAGGAGGACAGTGGAGTTGGCTTGCAGACAGTCATTTGCAGAGCCCTGAT	0.261 ratio
TAATAATAATAGATCCTTATTATATTTATGGAAATCTATACTAATACTTAATATGGCCTTCTTTTCTTTGGTTTTTATAGCTGGGAAACTAAGTAAACATGAGAAACTTATCATGAGAAACTTCTCATGTCAGCCTCACTCATATACTACCCCTTCAACTTGCTGTAGAGTGTCAAAGATTAAAATCTCACTC	0.379 ratio
CACGCGGAGAGGCCACCTGCCCGGGCCAATCTGTACGCTCCGTGATCTTCGCCCGCTCCCCGGCCCCGCGCCCTGGTGTCCCTGCAGTCGCTGAGTAAACAGCGACTGGGAGCCATCTTGGGGCGGAGGACCGATCCCAAGCGAAGTAGTAGTGGCTGCAGCCCGGGTGCCCCCATTCGTAAAGGGGAGCCTC	0.325 ratio
ATTTCTGGAGAGCACAGTGTGTTTTATCTTGAAAAAAACATAGTTCATTATTTTTTCAACTCCCATTCTTGGAAGCGCTGAATCCACTGCTGTTATTTACACAAGAAATGTCAACGATTGTTTCAGGCAGTTTGGTAGGCTAGACAATGCTTCACACAGGGGGAACTGTTTGCAATTTACTTAAAGGGTCTAA	0.45 ratio
TGGCTGGCATCAAGGACTTTGGCTCTGGGGGTGTTCCCAGTCAACAGTTAACTAAAGACCAGGCCACTGTGCCTAGACTGTTTGTGCATTTGTGCAAACAATATGGGTTCATGCTGAAGTCCTGCGTTCCTTCTGAGAGTCTGAAAAGTTTAGAACATGCCAGGCAGAGGGTGTGTACCTGACCAACCCCCAA	0.347 ratio
AAAAATTTTAGTCTGGATTGATGTTAGGAAATACAATATCTAAGCAATTTGATGTTAAGTTCATCTTGACAGCTTTTAAGACAGAAAATATAAGATTACTTAGAAAATCAACAGAAAAAAATTGCTCTGTTTCTTATCTGACATGAGTCAAAACACGGAATTTTAAATTACATTAAGCTGTGAAATAAAACTG	0.0362 ratio

Sample 3 — technique: RNA Bind-n-Seq; molecule type: RNA; matrix: in vitro; concentration: 200 nM; notes: whole 134-nt RNA, ends assumed; together with: 150 mM LiCl; reference: input library; direction: higher = stronger binding; each molecule: 7-deaza-guanosine replaces G
Target: Ras GTPase-activating protein-binding protein 1, full length (G3BP1, Homo sapiens, UniProt Q13283)
Sequence of UniProt Q13283 (whole entry, looked up): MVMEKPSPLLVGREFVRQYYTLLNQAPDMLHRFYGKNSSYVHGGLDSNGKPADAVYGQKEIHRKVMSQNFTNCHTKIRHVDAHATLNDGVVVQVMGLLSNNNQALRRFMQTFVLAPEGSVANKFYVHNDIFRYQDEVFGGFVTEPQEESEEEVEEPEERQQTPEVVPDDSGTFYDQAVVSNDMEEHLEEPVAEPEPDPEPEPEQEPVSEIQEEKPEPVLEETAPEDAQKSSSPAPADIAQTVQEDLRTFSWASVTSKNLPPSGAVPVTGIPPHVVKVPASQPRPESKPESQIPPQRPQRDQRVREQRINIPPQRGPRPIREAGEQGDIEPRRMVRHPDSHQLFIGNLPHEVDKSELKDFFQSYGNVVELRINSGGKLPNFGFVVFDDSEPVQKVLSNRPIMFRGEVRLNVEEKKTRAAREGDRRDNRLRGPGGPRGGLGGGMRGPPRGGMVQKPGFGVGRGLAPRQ
Shared flanks, not repeated: GGGAGUUCUACAGUCCGACGAUC … UGGAAUUCUCGGGUGUCAAGG
Strand	log2 enrichment
CACAGACAACACGCACCCACACAGACACAGAGGGAAGGGGUUGGGAUGGGGACAGGGUGCACAGCAGGGCGGGGUAGGACCCCAACCCCU	0.52
AGUCCUGUGCUACACAUCGUAUGUACCGAAUCGGGUUUUUGGGUUUUUUUGGGAGGGAAAGUAUUAUGUUACGCCGUUCGGAUCUGCACU	0.137
AAGUCCUGUGCUACACAUCGUAUGUACCGAAUCAAACCCAAAUUUUUAAAUUUAAAAAAGUAUUAUGUUACGCCGUUCGGAUCUGCACUU	-0.616
UGGGAGGUCGAUUUUGUUUAUUUUUUUAGCUCAUUUCCAGGGGUGGGAAUUUUUUUUUAAUAUGUGUCAUGAAUAAAGUUGUUUUUGAAA	0.535
GUCCUGUGCUACACAUCGUAUGUACCGAAUCGGGUUUUUGGGUUUGGGUUUUUUUGGGAAAGUAUUAUGUUACGCCGUUCGGAUCUGCAC	-1.19
GUCCUGUGCUACACAUCGUAUGUACCGAAUCAAAUUUUUAAAUUUAAAUUUUUUUAAAAAAGUAUUAUGUUACGCCGUUCGGAUCUGCAC	-2.81
ACCAUGCAGGUGUGCAUCUUUGGGAAGUGGGGCAAGGGGGGGAUAGGGAGGGGGGUAACACUUUGGGAACAGGUGGUCCCAGGUCGUUUC	0.426
UGGCCCUGGUGGCAUGCGGGGAGGAAGAGGUGGCCUCAUGGAUCUUGGUGGUCCCGGUGGAAUGUUCAGAGGUGGCCGUGGUGGAGACAG	0.0673

Mixed results
Molecule	target	test	system	conditions	quantity	result
RRRPVTRPL	HLA class I histocompatibility antigen, A alpha chain, allele A*25:01 (Homo sapiens, UniProt P04439)	peptide-MHC binding	peptide	concentration not given	binding	inactive

Some of these lines once more (sample 1):
Strand	fitted relative affinity
TTAGACCTGAGTATCGATTAGTGCTAG	4.25 z-score
GATGAACTGGGGACTGGAGACGTGCTA	-0.0674 z-score
CACTCCACCTCTGTGCTCTTGTGCTAG	0.21 z-score
GACCAACTGGGGTATCGAGACGTGCTA	1.18 z-score
